Assay results collected from several papers.
Lines come from different studies, so protocols differ. ± gives the spread as reported.
Organism: West Nile virus

O=C(N1CCC2(CC1)C[C@H](CN1CCCCS1(=O)=O)CCO2)C1(c2ccccc2)CCCC1 — EC50 (viral replication; Vero): > 10 µM
O=c1ccn([C@@H]2O[C@H](CO)[C@@H](O)[C@H]2O)c(=S)[nH]1 — EC50 (viral replication; BHK-21): 5.3 µM
COc1cc(NC(C)CCCN)c2ncccc2c1 (stereo not drawn) — inhibition (replicon reporter; Vero replicon cells; 50 µM, 24 h): < 0%
NC(=O)c1nc(F)c[nH]c1=O — EC50 (viral replication; BHK-21): 36 µM
Cl.ClCCN(CCCl)c1ccc(CCNc2ccnc3cc(Cl)ccc23)cc1 — inhibition (viral replication, Rluc reporter replicon; Vero WNV replicon cells; 50 µM, 24 h): 99.5 ± 0.05%
N#C[C@@]1(n2ccc(N)nc2=O)O[C@H](CO)[C@@H](O)[C@H]1O — EC50 (viral replication, cell-based): > 20 µM
CC(CCCN(CCCl)CCCl)Nc1ccnc2cc(Cl)ccc12 (stereo not drawn) — inhibition (replicon reporter; Vero replicon cells; 50 µM, 24 h): 99.8 ± 0.03%
N#Cc1c(Nc2ccc(F)cc2)n[nH]c1NS(=O)(=O)c1ccc2ccccc2c1 — EC50 (viral replication; Vero 76, Kern 515): > 7.9 µM
Nc1ncnc2c1ncn2[C@@H]1O[C@@H]2COP(=O)(O)O[C@H]3[C@@H](O)[C@H](n4cnc5c(=O)[nH]cnc54)O[C@@H]3COP(=O)(O)O[C@H]2[C@H]1O — fold enrichment (RNA sequencing, measured: organization, cell-cell junction, R-HSA-421270; HFF-1 cells; concentration not given, downregulated pathway; reference: WNV-infected untreated cells): 5.15

Some of these lines once more:
O=c1ccn([C@@H]2O[C@H](CO)[C@@H](O)[C@H]2O)c(=S)[nH]1 — EC50 (viral replication; BHK-21): 5.3 µM
COc1cc(NC(C)CCCN)c2ncccc2c1 (stereo not drawn) — inhibition (replicon reporter; Vero replicon cells; 50 µM, 24 h): < 0%
